Measurements from different studies.
Organism: Mycobacterium tuberculosis

CC(C)(C)OC(=O)NCCC[C@H](NC(=O)c1ccc(NCc2ccc3nc(N)nc(N)c3c2Cl)cc1)C(=O)O — MIC (pptT knockdown with ATc): < 0.2 µM
CC(=O)c1sc(N/N=C/c2c(-c3ccc(Br)cc3)nc3ncccn23)nc1C — MIC (MABA; H37Rv ATCC 27294): 6.25 µg/mL
Cc1cc(-c2ccccc2)[nH]c(=O)c1CNC(=O)c1ccc(C(F)(F)F)nc1 — MIC (microbial growth, resazurin; H37RV): > 12.5 µg/mL
COC(=O)[C@H](CCCNC(=O)OC(C)(C)C)NC(=O)c1ccc(NCc2ccc3nc(N)nc(N)c3c2Cl)cc1 — MIC (pptT knockdown with ATc): < 0.1 µM
O=c1nc(N2CCC(Oc3ccccc3Br)CC2)sc2c([N+](=O)[O-])cc(C(F)(F)F)cc12 — MIC (microbial growth; H37RA): 0.031 µM
CC(C)=CCC/C(C)=C/CC/C(C)=C/CNCCOC1C2CC3CC(C2)CC1C3 (stereo not drawn) — MIC (Erdman): 1 µg/mL
CNc1nc(SC)nc2ccccc12 — MIC (microbial growth, resazurin; H37RV): 0.13 µM
CC(C)=CCC/C(C)=C/CNCCOC1C2CC3CC(C2)CC1C3 (stereo not drawn) — MIC (H37Rv): 0.035 µg/mL
O=C(Cc1csc2nc(-c3ccc(Br)cc3)cn12)NN=C1CCCC1 — MIC (H37Rv): 16300 µg/mL
Cc1ccc2nc(C)c(C(=O)NCc3ccccc3)n2c1 — MIC (microbial growth; H37RV; 5 days): 0.006 µM
Cc1cc(C)c2cc(C(=O)NC3CCCCC3)[nH]c2c1 — MIC (microbial growth; H37RV): 0.125 to 0.25 µg/mL
NC(=O)C(CC(=O)c1cccc(Oc2ccccc2)c1)c1ccc(F)cc1 (stereo not drawn) — MIC (microbial growth, resazurin; H37RV): 50 µg/mL
O=c1nc(N2CCC(Oc3ncc(F)cn3)CC2)sc2c([N+](=O)[O-])cc(C(F)(F)F)cc12 — MIC (microbial growth; H37RA): 0.008 µM
CC(=O)NC1C(OC2OC(CC(O)C3OC(n4ccc(=O)[nH]c4=O)C(O)C3O)C(O)C(O)C2NC(=O)C=CCCCCCCCCCC(C)C)OC(CO)C(O)C1O (stereo not drawn) — MIC (H37Rv): > 50 µg/mL
O=C1c2ccccc2C(=O)N1c1nnc(-c2ccc(Cl)cc2)s1 — MIC (microbial growth; H37RV): > 200 µM
C#CCN(Cc1ccc2[nH]cnc(=O)c2c1)c1ccc(C(=O)N[C@@H](CCC(=O)O)C(=O)O)cc1 — MIC (pptT knockdown with ATc): > 100 µM
Cc1cccc(-c2nc(Nc3ccncn3)c3c(C)csc3n2)n1 — MIC (microbial growth, resazurin; H37RV): 0.76 µM
N#Cc1cc(C(=O)c2ccc3ccccc3c2O)c[nH]c1=O — MIC (Microplate Alamar Blue; RCMB 010126): 15.6 µg/mL
c1cc2c(s1)CCOC21CCN(Cc2ccc3c(c2)OCCO3)CC1 — MIC (microbial growth, resazurin; H37RV): 0.38 µM
CCc1ccn2c(C(=O)NCc3ccc(C)cc3)c(C)nc2c1 — MIC (H37Rv, replicating): 0.003 to 0.05 µM
O=C(C=Cc1cccs1)c1ccc(-n2cccc2)cc1 — MIC (microbial growth, resazurin; H37RV; 7 days): 6.25 µg/mL
O=C1c2ccccc2C(=O)N1c1ccccc1Br — MIC (microbial growth; H37RV): > 200 µM
Nc1nc(-c2ccc(-n3cccc3)cc2)cc(-c2ccc(Cl)cc2Cl)n1 — MIC (microbial growth, resazurin; H37RV; 7 days): 6.25 µg/mL
CCOC(=O)c1sc(N/N=C/c2c(-c3ccc(OC)cc3)nc3ncccn23)nc1C — MIC (MABA; H37Rv ATCC 27294): 1.6 µg/mL
Cc1ccc(CNC(=O)C(=O)c2c(C)nc3ccc(C)cn23)cc1 — MIC (H37Rv, replicating): 2 to 4 µM
COc1ccc(CCNc2cc(-c3ccccc3)nc3ncnn23)cc1 — MIC (microbial growth, resazurin; H37RV): 0.94 µM
CC(=O)c1sc(N/N=C/c2c(-c3ccc(C)cc3)nc3ncccn23)nc1C — MIC (MABA; H37Rv ATCC 27294): 12.5 µg/mL
O=C(Nc1ccc(F)c(F)c1F)NC1C2CC3CC(C2)CC1C3 (stereo not drawn) — MIC (microbial growth; H37RV): 0.0313 to 0.0625 µg/mL
CC(=O)c1sc(N/N=C/c2c(-c3ccc(F)cc3)nc3ncccn23)nc1C — MIC (MABA; H37Rv ATCC 27294): 3.12 µg/mL
CC(C)=CCNCCOC1C2CC3CC(C2)CC1C3 (stereo not drawn) — MIC (Erdman): 4 µg/mL
CC1C(=NOCc2cn(-c3ccccc3)nn2)C(C)C(c2ccc(Br)cc2)OC1c1ccc(Br)cc1 (stereo not drawn) — MIC (microbial growth, resazurin; H37RV): 3.12 µg/mL
CCOC(=O)C(CC)N1CCN(c2nc(=O)c3cc(C(F)(F)F)cc([N+](=O)[O-])c3s2)CC1 (stereo not drawn) — MIC (microbial growth; H37RA): 0.031 µM
COc1cccc(C=CC(=O)c2ccc(-n3cccc3)cc2)c1O — MIC (microbial growth, resazurin; H37RV; 7 days): 3.12 µg/mL
CC1C(=NNC(=O)c2ccncc2)C(C)C(c2ccc(Cl)cc2)OC1c1ccc(Cl)cc1 (stereo not drawn) — MIC (microbial growth, resazurin; H37RV): 1.56 µg/mL
CCc1ccn2c(C(=O)NC(C)c3ccccc3)c(C)nc2c1 (stereo not drawn) — MIC (H37Rv, replicating): 2 to 3 µM
Nc1nc(-c2ccc(-n3cccc3)cc2)cc(-c2c(Cl)cccc2Cl)n1 — MIC (microbial growth, resazurin; H37RV; 7 days): 12.5 µg/mL
Cc1[nH]c(=O)c(CNC(=O)c2ccc(C(F)(F)F)nc2)c2c1CCCC2 — MIC (microbial growth, resazurin; H37RV): 1.2 to 3 µg/mL
CCOC(=O)/C=C1/SC(N/N=C/c2c(-c3ccc(C)cc3)nc3ncccn23)=NC1=O — MIC (MABA; H37Rv ATCC 27294): 12.5 µg/mL
Cc1cc(C)c2cc(C(=O)NC3CCCCCC3)[nH]c2c1 — MIC (microbial growth; H37RV): 0.0156 to 0.0313 µg/mL
C#CCN(Cc1ccc2nc(N)nc(N)c2c1)c1ccc(C(=O)N[C@@H](CCC(=O)OCC)C(=O)OCC)cc1 — MIC (pptT knockdown with ATc): < 0.1 µM
NC(=O)C(CC(=O)c1cccc(Oc2ccccc2)c1)c1ccc(Cl)cc1 (stereo not drawn) — MIC (microbial growth, resazurin; H37RV): > 100 µg/mL
[H]/N=C(/N)N[C@H]1[C@H](O)[C@@H](O)[C@H](O[C@@H]2O[C@@H](C)[C@](O)(C=O)[C@H]2O[C@@H]2O[C@@H](CO)[C@H](O)[C@@H](O)[C@@H]2NC)[C@@H](N/C(N)=N\[H])[C@@H]1O — MIC (MABA; H37Rv ATCC 27294): 6.25 µg/mL
Cc1ccc(CNC(=O)Cc2c(C)nc3ccc(C)cn23)cc1 — MIC (microbial growth; H37RV; 5 days): 2 µM
CSC(=NNC(=O)c1ccc([N+](=O)[O-])cc1)SC — MIC (H37Rv): 6.2 µg/mL
CC1C(=NNC(=O)c2ccncc2)C(C)C(c2ccc(Br)cc2)OC1c1ccc(Br)cc1 (stereo not drawn) — MIC (microbial growth, resazurin; H37RV): 0.78 µg/mL
CO[C@H]1[C@@H](O)[C@H](n2ccc(=O)[nH]c2=O)O[C@@H]1[C@@H](O[C@H]1OC(C(=O)N[C@H]2N=C(c3ccccc3)c3ccccc3NC2=O)=C[C@H](O)[C@@H]1O)C(N)=O — MIC (microbial growth, resazurin; H37RV): 2.5 µg/mL
C#CCN(Cc1ccc2[nH]c(C)nc(=O)c2c1)c1ccc(C(=O)N[C@@H](CCC(=O)O)C(=O)O)cc1 — MIC (pptT knockdown with ATc): > 100 µM
CCOC(=O)c1sc(N/N=C/c2c(-c3ccc(F)cc3)nc3ncccn23)nc1C — MIC (MABA; H37Rv ATCC 27294): 1.6 µg/mL
CC1=CC2(C)C(=C(C)C3C4CC(C)CC(C)C4C4Oc5ccc(cc5)CC5(O)NC(=O)C(=C(O)C2C43)C5Nc2ncnc3c2ncn3C2OC(CO)C(O)C2O)C1C (stereo not drawn) — MIC (microbial growth, resazurin; H37RV): > 100 µM
CCc1ccc([C@@H]2C[C@H](C(F)(F)F)n3ncc(C(=O)NCc4ccc(OC)cc4)c3N2)cc1 — MIC (microbial growth, resazurin; H37RV): 0.25 µM
CC(=O)c1sc(N/N=C/c2c(-c3ccc(C#N)cc3)nc3ncccn23)nc1C — MIC (MABA; H37Rv ATCC 27294): 6.25 µg/mL

Some of these lines once more:
C#CCN(Cc1ccc2[nH]cnc(=O)c2c1)c1ccc(C(=O)N[C@@H](CCC(=O)O)C(=O)O)cc1 — MIC (pptT knockdown with ATc): > 100 µM
COc1ccc(CCNc2cc(-c3ccccc3)nc3ncnn23)cc1 — MIC (microbial growth, resazurin; H37RV): 0.94 µM
Cc1cc(C)c2cc(C(=O)NC3CCCCCC3)[nH]c2c1 — MIC (microbial growth; H37RV): 0.0156 to 0.0313 µg/mL
COC(=O)[C@H](CCCNC(=O)OC(C)(C)C)NC(=O)c1ccc(NCc2ccc3nc(N)nc(N)c3c2Cl)cc1 — MIC (pptT knockdown with ATc): < 0.1 µM
